Measurements pooled from the literature.
Compare with care: the assays were run in different laboratories. ± marks the error that the study gave.

SMILES	assay	test system	conditions	how to read	measurement	value
CCCC[C@H](NC(=O)CCCCCCCNC(=O)c1ccc(NN)nc1)C(=O)N[C@H]1CC(=O)NCCCC[C@@H](C(N)=O)NC(=O)[C@H](Cc2c[nH]c3ccccc23)NC(=O)[C@H](CCCNC(=N)N)NC(=O)[C@@H](Cc2ccccc2)NC(=O)[C@H](Cc2c[nH]cn2)NC1=O [technetium-99m labelled]		C57 mouse, B16/F1 melanoma, tumor	intravenous, 2 h		uptake	22.3 ± 1.72 %ID/g
C/C=C(/C)C(=O)O[C@H]1C(C)=C2[C@H]([C@@H]1OC(=O)CCCCCCC)[C@@](C)(OC(C)=O)C[C@H](OC(=O)CCCCCCCCCCCNC(=O)[C@H](CO)NC(=O)[C@@H]1CCCN1C(=O)CNC(=O)[C@@H](NC(=O)[C@H](CCC(=O)O)NC(=O)CNC(=O)[C@H](CCCNC(=N)N)NC(=O)[C@@H](N)CCC(=O)O)[C@@H](C)O)[C@@]1(O)[C@H]2OC(=O)[C@@]1(C)O		female nude mouse, MCF7 xenograft, tumour	intravenous, full-length prodrug		t1/2	~12 h
N=C(N)NCCC[C@@H]1NC(=O)[C@H](CCCCNC(=O)CNC(=O)CNC(=O)CNC(=O)c2ccc(NN=Cc3ccccc3S(=O)(=O)O)nc2)NC(=O)[C@@H](Cc2ccccc2)NC(=O)[C@H](CC(=O)O)NC(=O)CNC1=O [technetium-99m labelled]	shake-flask	n-octanol/phosphate buffer	pH 7.4		log P	-4.4 ± 0.19
CSCC[C@H](NC(=O)[C@H](CC(C)C)NC(=O)[C@H](Cc1c[nH]cn1)NC(=O)CNC(=O)[C@@H](NC(=O)[C@H](C)NC(=O)[C@H](Cc1c[nH]c2ccccc12)NC(=O)[C@H](CCC(N)=O)NC(=O)CCCCCNC(=O)CNC(=O)CNC(=O)CNC(=O)CSC(C)=O)C(C)C)C(N)=O [technetium-99m labelled]		Swiss mouse, kidney	intravenous, 18.5 MBq, 240 min		tissue uptake	0.29 ± 0.03 %ID/g
CSCC[C@H](NC(=O)[C@H](CC(C)C)NC(=O)[C@H](Cc1c[nH]cn1)NC(=O)CNC(=O)[C@@H](NC(=O)[C@H](C)NC(=O)[C@H](Cc1c[nH]c2ccccc12)NC(=O)[C@H](CCC(N)=O)NC(=O)CCCCCCCNC(=O)CCC(=O)Nc1ccc(CNC23CNCCNCC(N)(CNCCNC2)CNCCNC3)cc1)C(C)C)C(N)=O [copper-64 labelled]		mice, PC-3 xenograft	dose not given, 24 h	baseline: level at 1 h	blood radioactivity remaining	8%
N=C(N)NCCC[C@@H]1NC(=O)[C@H](CCCCNC(=O)CNC(=O)CNC(=O)CNC(=O)CC[C@H](NC(=O)CCOCCOCCOCCOCCNC(=O)CC[C@H](NC(=O)CN2CCN(CC(=O)O)CCN(CC(=O)O)CCN(CC(=O)O)CC2)C(=O)NCCOCCOCCOCCOCCC(=O)N[C@@H](CCC(=O)NCC(=O)NCC(=O)NCC(=O)NCCCC[C@@H]2NC(=O)[C@@H](Cc3ccccc3)NC(=O)[C@H](CC(=O)O)NC(=O)CNC(=O)[C@H](CCCNC(=N)N)NC2=O)C(=O)NCC(=O)NCC(=O)NCC(=O)NCCCC[C@@H]2NC(=O)[C@@H](Cc3ccccc3)NC(=O)[C@H](CC(=O)O)NC(=O)CNC(=O)[C@H](CCCNC(=N)N)NC2=O)C(=O)NCC(=O)NCC(=O)NCC(=O)NCCCC[C@@H]2NC(=O)[C@@H](Cc3ccccc3)NC(=O)[C@H](CC(=O)O)NC(=O)CNC(=O)[C@H](CCCNC(=N)N)NC2=O)NC(=O)[C@@H](Cc2ccccc2)NC(=O)[C@H](CC(=O)O)NC(=O)CNC1=O [indium-111 labelled]		athymic nude mice, female, U-87 MG glioma xenograft, tumour and blood	intravenous, 0.5 h	baseline: tumour over blood	tumour to tissue ratio	13.6 ± 3.47
C[C@@H](O)[C@H](NC(=O)[C@@H]1CSSC[C@H](NC(=O)[C@@H](Cc2ccccc2)NC(=O)CN2CCCN3CCN(CCCN(CP(=O)(O)O)CC3)CC2)C(=O)N[C@@H](Cc2ccc(O)cc2)C(=O)N[C@H](Cc2c[nH]c3ccccc23)C(=O)N[C@@H](CCCCN)C(=O)N[C@@H]([C@@H](C)O)C(=O)N1)C(=O)O [copper-64 labelled]		male Lewis rat, AR-42J tumour-bearing	dose not given, 1 to 24 h		activity cleared from liver	75%
CC(C)C[C@H](NC(=O)[C@@H]1CCCN1C(=O)[C@H](CCCCN)NC(=O)[C@@H](N)CO)C(=O)N1CCC[C@H]1C(=O)N[C@@H](CCC(=O)O)C(=O)N[C@H](C(=O)N[C@H](C(=O)N[C@@H](CC(=O)O)C(=O)N[C@@H](CCC(=O)O)C(=O)N[C@@H](Cc1ccc(O)cc1)C(=O)N[C@@H](Cc1cn(CCOCCOCCOCCNC(=O)CCc2ccc(O)c(CN(CCN(CC(=O)O)Cc3cc(CCC(=O)NCCCC[C@H](NC(=O)N[C@@H](CCC(=O)O)C(=O)O)C(=O)O)ccc3O)CC(=O)O)c2)nn1)C(=O)O)[C@@H](C)O)C(C)C [gallium-68 labelled]		NMRI nu/nu mice, LNCaP tumour, heart	135.34 nmol/kg, low molar activity		standardized uptake value	0.05 g/g
N=C(N)NCCC[C@@H]1NC(=O)[C@H](CCCCNC(=O)CCOCCOCCOCCOCCNC(=O)CC[C@H](NC(=O)CCOCCOCCOCCOCCNC(=O)CC[C@H](NC(=O)CN2CCN(CC(=O)O)CCN(CC(=O)O)CCN(CC(=O)O)CC2)C(=O)NCCOCCOCCOCCOCCC(=O)N[C@@H](CCC(=O)NCCOCCOCCOCCOCCC(=O)NCCCC[C@@H]2NC(=O)[C@@H](Cc3ccccc3)NC(=O)[C@H](CC(=O)O)NC(=O)CNC(=O)[C@H](CCCNC(=N)N)NC2=O)C(=O)NCCOCCOCCOCCOCCC(=O)NCCCC[C@@H]2NC(=O)[C@@H](Cc3ccccc3)NC(=O)[C@H](CC(=O)O)NC(=O)CNC(=O)[C@H](CCCNC(=N)N)NC2=O)C(=O)NCCOCCOCCOCCOCCC(=O)NCCCC[C@@H]2NC(=O)[C@@H](Cc3ccccc3)NC(=O)[C@H](CC(=O)O)NC(=O)CNC(=O)[C@H](CCCNC(=N)N)NC2=O)NC(=O)[C@@H](Cc2ccccc2)NC(=O)[C@H](CC(=O)O)NC(=O)CNC1=O [indium-111 labelled]		athymic nude mice, female, U-87 MG glioma xenograft, tumour and lungs	intravenous, 0.5 h	baseline: tumour over lungs	tumour to tissue ratio	2.61 ± 0.33
N=C(N)NCCC[C@H](NC(=O)[C@H](CCCCN)NC(=O)[C@H](CCC(N)=O)NC(=O)CCOCCOCCOCCNC(=O)CN1CCN(CC(=O)O)CCN(CC(=O)O)CCN(CC(=O)O)CC1)C(=O)N[C@@H](CCCCN)C(=O)N[C@@H](CCCNC(=N)N)C(=O)N[C@@H](CCCCN)C(=O)N[C@@H](CCCCN)C(=O)N[C@@H](CO)C(=O)N[C@@H](CCCNC(=N)N)C(=O)N[C@@H](Cc1ccc(O)cc1)C(=O)N[C@@H](CCCCN)C(=O)N[C@@H](CO)C(=O)O [copper-64 labelled]	PET	mice, B16-F10 melanoma	intravenous, dose not given		time to peak muscle radioactivity	≤ 5 min
N=C(N)NCCC[C@@H]1NC(=O)[C@H](CCCCNC(=O)CC[C@H](NC(=O)CCOCCOCCOCCOCCNC(=O)CC[C@H](NC(=O)CN2CCN(CC(=O)O)CCN(CC(=O)O)CCN(CC(=O)O)CC2)C(=O)NCCOCCOCCOCCOCCC(=O)N[C@@H](CCC(=O)NCCCC[C@@H]2NC(=O)[C@@H](Cc3ccccc3)NC(=O)[C@H](CC(=O)O)NC(=O)CNC(=O)[C@H](CCCNC(=N)N)NC2=O)C(=O)NCCCC[C@@H]2NC(=O)[C@@H](Cc3ccccc3)NC(=O)[C@H](CC(=O)O)NC(=O)CNC(=O)[C@H](CCCNC(=N)N)NC2=O)C(=O)NCCCC[C@@H]2NC(=O)[C@@H](Cc3ccccc3)NC(=O)[C@H](CC(=O)O)NC(=O)CNC(=O)[C@H](CCCNC(=N)N)NC2=O)NC(=O)[C@@H](Cc2ccccc2)NC(=O)[C@H](CC(=O)O)NC(=O)CNC1=O [indium-111 labelled]		athymic nude mice, female, U-87 MG glioma xenograft, tumour and liver	intravenous, 1 h	baseline: tumour over liver	tumour to tissue ratio	4.34 ± 1.12
N=C(N)NCCC[C@@H]1NC(=O)[C@H](CCCCn2cc(CNC(=O)CN3CCN(CC(=O)O)CCN(CC(=O)O)CCN(CC(=O)O)CC3)nn2)NC(=O)[C@@H](Cc2ccccc2)NC(=O)[C@H](CC(=O)O)NC(=O)CNC1=O		rat serum	48 h, 37 °C, 64Cu-labeled		intact fraction	76%
N=C(N)NCCC[C@@H]1NC(=O)[C@H](CCCCNC(=O)CC[C@H](NC(=O)CCOCCOCCOCCOCCNC(=O)CN2CCN(CC(=O)O)CCN(CC(=O)O)CCN(CC(=O)O)CC2)C(=O)NCCCC[C@@H]2NC(=O)[C@@H](Cc3ccccc3)NC(=O)[C@H](CC(=O)O)NC(=O)CNC(=O)[C@H](CCCNC(=N)N)NC2=O)NC(=O)[C@@H](Cc2ccccc2)NC(=O)[C@H](CC(=O)O)NC(=O)CNC1=O [indium-111 labelled]		female athymic nude mice, heart	intravenous, 3 µCi, 1 h, U-87 MG glioma xenograft		tissue uptake	0.69 ± 0.19 %ID/g
CCCC[C@H](NC(=O)CNC(=O)[C@H](CO)NC(=O)CNC(=O)c1ccc(NN)nc1)C(=O)N[C@H]1CC(=O)NCCCC[C@@H](C(N)=O)NC(=O)[C@H](Cc2c[nH]c3ccccc23)NC(=O)[C@H](CCCNC(=N)N)NC(=O)[C@@H](Cc2ccccc2)NC(=O)[C@H](Cc2c[nH]cn2)NC1=O [technetium-99m labelled]		C57 mouse, B16/F1 melanoma, tumor	intravenous, 2 h		uptake	7.41 ± 4.26 %ID/g
N=C(N)NCCC[C@@H]1NC(=O)[C@H](CCCCNC(=O)CCOCCOCCOCCOCCNC(=O)CN2CCN(CC(=O)O)CCN(CC(=O)O)CCN(CC(=O)O)CC2)NC(=O)[C@@H](Cc2ccccc2)NC(=O)[C@H](CC(=O)O)NC(=O)CNC1=O [indium-111 labelled]		athymic nude mice, female, U-87 MG glioma xenograft, tumour and muscle	intravenous, 0.5 h	baseline: tumour over muscle	tumour to tissue ratio	3.46 ± 1.23
CCCC[C@H](NC(=O)CNC(=O)CNC(=O)c1ccc(NN)nc1)C(=O)N[C@H]1CC(=O)NCCCC[C@@H](C(N)=O)NC(=O)[C@H](Cc2c[nH]c3ccccc23)NC(=O)[C@H](CCCNC(=N)N)NC(=O)[C@@H](Cc2ccccc2)NC(=O)[C@H](Cc2c[nH]cn2)NC1=O [technetium-99m labelled]		C57 mouse, B16/F1 melanoma-bearing, bone	intravenous, 0.5 h		tissue uptake	0.76 ± 0.1 %ID/g

Excerpt of the above:
SMILES	assay	test system	conditions	how to read	measurement	value
N=C(N)NCCC[C@@H]1NC(=O)[C@H](CCCCNC(=O)CNC(=O)CNC(=O)CNC(=O)CC[C@H](NC(=O)CCOCCOCCOCCOCCNC(=O)CC[C@H](NC(=O)CN2CCN(CC(=O)O)CCN(CC(=O)O)CCN(CC(=O)O)CC2)C(=O)NCCOCCOCCOCCOCCC(=O)N[C@@H](CCC(=O)NCC(=O)NCC(=O)NCC(=O)NCCCC[C@@H]2NC(=O)[C@@H](Cc3ccccc3)NC(=O)[C@H](CC(=O)O)NC(=O)CNC(=O)[C@H](CCCNC(=N)N)NC2=O)C(=O)NCC(=O)NCC(=O)NCC(=O)NCCCC[C@@H]2NC(=O)[C@@H](Cc3ccccc3)NC(=O)[C@H](CC(=O)O)NC(=O)CNC(=O)[C@H](CCCNC(=N)N)NC2=O)C(=O)NCC(=O)NCC(=O)NCC(=O)NCCCC[C@@H]2NC(=O)[C@@H](Cc3ccccc3)NC(=O)[C@H](CC(=O)O)NC(=O)CNC(=O)[C@H](CCCNC(=N)N)NC2=O)NC(=O)[C@@H](Cc2ccccc2)NC(=O)[C@H](CC(=O)O)NC(=O)CNC1=O [indium-111 labelled]		athymic nude mice, female, U-87 MG glioma xenograft, tumour and blood	intravenous, 0.5 h	baseline: tumour over blood	tumour to tissue ratio	13.6 ± 3.47
